Assay results of several laboratories.
Lines come from different studies, so protocols differ. “And” joins repeats or separate records; there may be more than shown. Numbers after ± are the reported error.
Gria1: Glutamate receptor 1 (Gria1, Rattus norvegicus, UniProt P19490)
Uncharacterized protein: Uncharacterized protein (Trypanosoma brucei brucei, UniProt Q386Q8)
SLC7A5: Large neutral amino acids transporter small subunit 1 (SLC7A5, Homo sapiens, UniProt Q01650)
MAOB: Amine oxidase [flavin-containing] B (MAOB, Homo sapiens, UniProt P27338)
glpG: Rhomboid protease GlpG (glpG, Escherichia coli, UniProt P09391)
ADRB2: Beta-2 adrenergic receptor (ADRB2, Homo sapiens, UniProt P07550)
PIK3CD: Phosphatidylinositol 4,5-bisphosphate 3-kinase catalytic subunit delta isoform (PIK3CD, Homo sapiens, UniProt O00329)
NNMT: Nicotinamide N-methyltransferase (NNMT, Homo sapiens, UniProt P40261)
ppa: Inorganic pyrophosphatase (ppa, Escherichia coli, UniProt P0A7A9)
OfChi-h: Chitinase (OfChi-h, Ostrinia furnacalis, UniProt Q4AE59)
TDP1: Tyrosyl-DNA phosphodiesterase 1 (TDP1, Homo sapiens, UniProt Q9NUW8)
DNA dC->dU-editing enzyme APOBEC-3B C-terminal domain: DNA dC->dU-editing enzyme APOBEC-3B, C-terminal domain (Homo sapiens, UniProt Q9UH17)
NTSR1: Neurotensin receptor type 1 (NTSR1, Homo sapiens, UniProt P30989)
CHRM3: Muscarinic acetylcholine receptor M3 (CHRM3, Homo sapiens, UniProt P20309)

Compound	target	assay	test system	setting	quantity	result
C=CC(=O)N1C[C@H](C)N(c2nc(OC[C@@]34CCCN3C[C@H](F)C4)nc3c(F)c(-c4ccc(F)c5sc(N)c(C#N)c45)c(C(F)(F)F)cc23)C[C@H]1C	GTPase KRas, GppNHp; with RAF1 RBD (KRAS, Homo sapiens, UniProt P01116, G13D)	–	–	–	IC50	0.7 ± 0.08 µM
OCC1OC(n2cnc3c(NCc4ccc(Br)s4)ncnc32)C(O)C1O (stereo not shown)	CYP2C19 (Homo sapiens, UniProt P33261)	enzyme activity, inhibitor, fluorescence	–	pH 7.4	IC50	35.4 µM
Cc1cnc(Nc2ccc3c(c2)CCN(C(=O)/C=C/C(=O)C2CCCC2)C3)nc1-c1cnn(C(C)C)c1	JAK1 (Homo sapiens, UniProt P23458)	enzyme activity, inhibitor, ADP detection	–	–	IC50	0.0108 µM
CC(C)(C)NC(=O)CC(NC(=O)CCc1ccccc1)C(=O)NCCNC(=O)c1ccc(-c2ccccc2)cc1 (stereo not shown)	Proteasome component C5/PSMB5 (Homo sapiens, UniProt P20618+P28074)	enzyme activity, inhibitor	–	constitutive proteasome β5c	IC50	> 100 µM
O=C(O)Cc1cc2c(cc1C(=O)c1ccccc1Cl)OCO2	Gria1	ion current, patch clamp	–	–	IC50	4.46 µM
CN(C)c1cc(N)c2cc(Cl)ccc2n1	Uncharacterized protein	enzyme activity, inhibitor, coupled colorimetric	–	together with: E. coli pyrophosphatase coupling	IC50	43.8 µM
N[C@@H](Cc1c[nH]c2ccc(OCc3cccc(-c4ccsc4)c3)cc12)C(=O)O	SLC7A5	transporter uptake, inhibitor, radiometric	–	–	IC50	18.9 µM
Cc1cc(O)c2c(c1)C(=O)c1cc(O)c(S(=O)(=O)O)c(O)c1C2=O	MAOB	enzyme activity, inhibitor	–	–	IC50	> 100 µM
O=C1CC(c2ccccc2)N1C(=O)Oc1ccccc1 (stereo not shown)	glpG	substrate cleavage, inhibitor	NR698	–	IC50	5.4 µM
Cc1nn(-c2cccc(N)c2)c(=O)c2cnc(Nc3ccc(N4CCNCC4)cc3)nc12	SGK3 (Homo sapiens, UniProt Q96BR1)	enzyme activity, inhibitor	–	–	IC50	1.09 µM
COc1ccc(Nc2nc(NC3CCCCC3)c3ccccc3n2)cc1OC	ADRB2	cAMP production, antagonist, GloSensor	–	together with: isoproterenol 1 µM	IC50	> 50 µM
CN1C(=O)/C(=N\c2ccc(Cl)cc2Br)c2ccccc21	PIK3CD	enzyme activity, inhibitor, ADP detection	–	–	IC50	0.0894 µM
CNc1cc(N)c(C(N)=O)cn1	NNMT	enzyme activity in cells, inhibitor	–	–	IC50	< 0.1 µM and 0.0631 µM
Cc1ccc2c(c1Br)C(O)(CC(=O)c1ccc(C3CCCCC3)cc1)C(=O)N2 (stereo not shown)	Uncharacterized protein	inhibitor, coupled colorimetric	Trypanosoma brucei	–	IC50	> 100 µM
Cc1cc2c(cc1N)n(C)c(=O)n2C	Bromodomain-containing protein 1, bromodomain (BRD1, Homo sapiens, UniProt O95696)	acetylated histone H4 peptide binding, inhibitor, HTRF	–	–	IC50	5.82 µM
CC(=O)C1=C(c2ccc(F)cc2)N(C(C)=O)n2cnnc2S1	ppa	inhibitor, counter-screen, coupling enzyme alone	–	–	IC50	45.4 µM
Nc1ccc2c(NC3CCCCC3)nc(Nc3ccc(F)c(F)c3)nc2c1	ADRB2	cAMP production, antagonist, GloSensor	–	together with: isoproterenol 1 µM	IC50	7.6 ± 2.5 µM
O=c1cc(-c2ccc(O)cc2)oc2c([C@@H]3OC[C@H](O)[C@H](O)[C@H]3O)c(O)c([C@@H]3O[C@H](CO)[C@@H](O)[C@H](O)[C@H]3O)c(O)c12	CAMK2D (Homo sapiens, UniProt Q13557)	binding, LanthaScreen Eu binding	–	1 h	IC50	3.53 µM
CN(C)c1nc(NCc2c(F)cccc2C(F)(F)F)c(/N=N/c2ccc(Cl)cc2)c(N(C)C)n1	OfChi-h	enzyme activity, inhibitor, fluorescence	–	–	IC50	0.27 µM
O=C(COC(=O)c1cc2c(s1)CCCCC2)NC1CCCCC1	Protein tyrosine phosphatase type IVA 3, with CNNM4 CBS domain (PTP4A3, Homo sapiens, UniProt O75365)	protein-protein interaction, inhibitor, HTRF	–	–	IC50	> 10 µM
Cn1c(C=NOCc2ccc3nc(-c4ccccc4)c(Nc4ccc(C(=O)O)cc4)n3c2)ccc1C(C#N)c1ccccc1C#N (mixture of isomers)	TDP1	enzyme activity, inhibitor	–	100 µM, unpurified compound	inhibition	23.9%
O=C1Nc2ccccc2C12NC(c1ccc(F)cc1)C1(C(=O)Nc3ccccc31)N2Cc1ccc(F)cc1 (stereo not shown)	PIK3CD	enzyme activity, inhibitor, ADP detection	–	–	IC50	0.183 µM
C[n+]1cc(C(N)=O)ccc1N	NNMT	enzyme activity, inhibitor	–	–	IC50	0.398 µM
N=C(N)SCc1ccccc1CSC(=N)N	Nos2 (Mus musculus, UniProt P29477)	enzyme activity, inhibitor	–	–	IC50	> 30 µM
CC(C)(C)n1ncc2c(=O)n(Cc3cccc(F)c3)c(NCc3ccc(F)cn3)nc21	PDE7A (Homo sapiens, UniProt Q13946)	enzyme activity, inhibitor	–	–	IC50	> 10 µM
O=C(O)c1cc(-c2ccc(CN3CCCC(CO)C3)o2)ccc1Cl (stereo not shown)	DNA dC->dU-editing enzyme APOBEC-3B C-terminal domain	deaminase activity, inhibitor, UDG-coupled deamination	–	–	IC50	45.8 ± 3 µM
COc1ccccc1N1CCN(c2nc(C3CC3)nc3cc(C(F)(F)F)c(OC)cc23)CC1	NTSR1	G protein activation, antagonist	–	–	IC50	1.05 µM
CCOc1cc(CN2CC3(CC(N4CCC(C(=O)O)CC4)=NO3)C2)cc(OCC)c1-c1ccc(F)cc1	SSTR5 (Homo sapiens, UniProt P35346, N187A)	cAMP level, antagonist, GloSensor	AD293	N187A mutant, bandwidth 45.51, together with: CST17 EC80 and forskolin	IC50	2.82 µM

Compound	target	assay	test system	setting	quantity	result
COc1ccc(C(N)=O)c[n+]1C	NNMT	enzyme activity, inhibitor	–	–	IC50	0.398 µM
Cc1nc(Nc2ccc3c(c2)/C(=C/c2cn(C)c4ccccc24)C(=O)N3C)c2ccccc2n1	PIK3CD	enzyme activity, inhibitor, ADP detection	–	–	IC50	0.773 µM
COC(=O)Cc1cc2c(cc1C(=O)c1ccccc1I)OCO2	Gria1	ion current, patch clamp	–	–	IC50	6.02 µM
CC(=O)C1=C(c2ccc(OC(F)F)cc2)N(C(C)=O)n2cnnc2S1	Uncharacterized protein	enzyme activity, inhibitor, coupled colorimetric	–	together with: E. coli pyrophosphatase coupling	IC50	42.4 µM
N[C@@H](Cc1c[nH]c2ccc(OCc3ccccc3-c3ccsc3)cc12)C(=O)O	SLC7A5	transporter uptake, inhibitor, radiometric	–	–	IC50	5.52 µM
Cc1cc2nc(C3CC3)nc(N3CCC(c4ccccc4N4CCC4)CC3)c2cc1N(C)CCO	NTSR1	G protein activation, antagonist	–	–	IC50	5.98 µM
O=C(O)Cc1cc2c(cc1C(=O)c1ccc(Cl)cc1Cl)OCO2	Gria1	glutamate-evoked current, inhibitor, whole-cell patch clamp	HEK293T, homomeric receptor	–	IC50	4.15 µM
O=C(c1cccc(-c2cc(NCCO)ncn2)c1)N1CCCC1c1ccccc1 (stereo not shown)	DNA dC->dU-editing enzyme APOBEC-3B C-terminal domain	deaminase activity, inhibitor, UDG-coupled deamination	–	–	IC50	455 ± 52 µM
Cn1c(/C=C/c2cn(C)c3ccccc23)nc2ccccc2c1=O	ppa	inhibitor, counter-screen, coupling enzyme alone	–	–	IC50	73.9 µM
O=C(O)c1ccc(-c2ccc(O)cc2)c2c1C=C(c1ccc(O)cc1)OC2(c1ccc(O)cc1)c1ccc(O)cc1	PDE4D (Homo sapiens, UniProt Q08499)	enzyme activity, inhibitor	–	–	IC50	0.049 µM
CNc1cc(F)c(C(N)=O)cn1	NNMT	enzyme activity, inhibitor	–	–	IC50	5.01 µM
CN(C)c1nc(NCc2ccc(F)cc2)c(/N=N/c2ccc(Cl)cc2)c(N(C)C)n1	OfChi-h	enzyme activity, inhibitor, fluorescence	–	–	IC50	0.1 µM
COc1ccccc1C1CCN(c2nc(C3(F)CC3)nc3c(Cl)cc(N(C)CCO)cc23)CC1	NTSR1	G protein activation, antagonist, BRET	–	–	IC50	1.87 µM
O=C1CC(c2ccccc2)N1S(=O)(=O)Cc1ccccc1 (stereo not shown)	glpG	enzyme activity, inhibitor	–	–	IC50	2.3 µM
Cc1ccc(C)c(C2=Nn3c(nnc3C3CCCCC3)SC2C)c1 (stereo not shown)	ppa	enzyme activity, inhibitor	–	–	IC50	226 µM
Fc1ccc(Nc2nc(NC3CCCCC3)c3ccccc3n2)cc1F	ADRB2 (Homo sapiens, UniProt P07550, L155C)	β-arrestin2 recruitment, antagonist, BRET	HEK293	mutant L155C, together with: isoprenaline 1 µM	IC50	2 µM
CC(C)c1ccc(/C=C/C(=O)c2ccc(F)cc2)cc1	MAOB	enzyme activity, inhibitor	–	–	IC50	0.035 µM
O=C(/C=C/c1ccc(O)c2oc(-c3ccc(O)c(O)c3)cc12)O[C@H](Cc1ccc(O)c(O)c1)C(=O)O	CHRM3	DMR desensitization	HT-29	together with: acetylcholine	IC50	78 µM
Cc1ccc2c(c1Br)C(O)(CC(=O)c1ccc3c(c1)OCO3)C(=O)N2 (stereo not shown)	ppa	enzyme activity, inhibitor	–	–	IC50	> 300 µM
Fc1ccc(Nc2nc(NC3CCCCC3)c3ccccc3n2)cc1	ADRB2	β-arrestin recruitment, antagonist	–	–	IC50	0.23 µM
Cc1cc(C=NOCc2ccc(-c3nc4cc(-c5ccccc5)ccn4c3Nc3ccc(C(=O)O)cc3)cc2)c(C)n1-c1ccc(C(=O)O)cc1	TDP1	enzyme activity, inhibitor	–	100 µM, unpurified compound	inhibition	98.2%
COc1ccccc1C1CCN(c2nc(C3CCCC3)nc3ccc(N(C)CCO)cc23)CC1	NTSR1	G protein activation, antagonist, BRET	–	–	IC50	10.2 µM
CC(=O)C1=C(C)Nc2ccccc2S1	ppa	inhibitor, counter-screen, coupling enzyme alone	–	–	IC50	56.9 µM
O=c1cnnc(Nc2ccc(O)cc2)[nH]1	DNA dC->dU-editing enzyme APOBEC-3B C-terminal domain	deaminase activity, inhibitor, UDG-coupled deamination	–	–	IC50	1190 ± 45 µM
O=C(CCNC(=O)CNC(=O)CC(c1ccccc1)(c1ccccc1)c1ccccc1)NC[C@@H]1CCCN(Cc2ccc(F)cc2)C1	CHRM3	ligand displacement, radioligand	–	cell membranes	IC50	0.3 µM
COC(=O)C1=CNC(C)=C(C(=O)OC)C1c1ccc(F)c(C(F)(F)F)c1 (stereo not shown)	CACNA1C (Homo sapiens, UniProt Q13936)	ion current, inhibitor, patch clamp	–	pH 7.4	IC50	4.8 µM
CCN(CC)CC(=O)Nc1cccc(-n2cc(-c3ccc4ccc(-c5cn(-c6cccc(NC(=O)CN(CC)CC)c6)nn5)cc4c3)nn2)c1	FGFR2 (Homo sapiens, UniProt P21802)	enzyme activity, inhibitor	–	–	IC50	> 10 µM

Excerpt of the above:
Compound	target	assay	test system	setting	quantity	result
Cc1cc2nc(C3CC3)nc(N3CCC(c4ccccc4N4CCC4)CC3)c2cc1N(C)CCO	NTSR1	G protein activation, antagonist	–	–	IC50	5.98 µM
CC(C)c1ccc(/C=C/C(=O)c2ccc(F)cc2)cc1	MAOB	enzyme activity, inhibitor	–	–	IC50	0.035 µM
COc1ccccc1C1CCN(c2nc(C3(F)CC3)nc3c(Cl)cc(N(C)CCO)cc23)CC1	NTSR1	G protein activation, antagonist, BRET	–	–	IC50	1.87 µM
